Results of several laboratories.
A part holds a random share of what one study measured.

Set 1 — technique: RNA Bind-n-Seq; form: RNA; medium: in vitro; concentration: 200 nM; setting: whole 134-nt RNA, ends assumed; added: 150 mM KCl; baseline: input library; reading: higher = stronger binding; endpoint: log2 enrichment
Target: Fragile X messenger ribonucleoprotein 1, C-terminal low-complexity region (Fmr1, Mus musculus, UniProt P35922)
All sequences stand within: GGGAGUUCUACAGUCCGACGAUC … UGGAAUUCUCGGGUGUCAAGG
CUGUGCUACACAUCGUAUGUACCGAAUCGGGAAAAAAAGGGAAAAAAAGGGUUUUUUUGGGAAAGUAUUAUGUUACGCCGUUCGGAUCUG: -1.3
GCAGGAAGUAAAAACAAAUGGAAAUGCUUCGGAUAGUGGCAGAGGUGGGGGUUGCUAAGGAAAGGGUGGGAUGGGAGUGGGUAAAGAGUU: 0.312
UGGCCCUGGUGGCAUGCGGGGAGGAAGAGGUGGCCUCAUGGAUCGUGGUGGUCCCGUUGGAAUGUUCAGAGGUGGCCGUGGUGGAGACAG: -0.0326
ACCAUGAAGGUGGGCAUCUUUGGGAAGUGGGGCAAGGGGGGGAUAGGGAGGGGGGUAACACUUUGGGAACAGGUGGUCCCAGGUCGUUUC: 0.847
UCAAGUCCUGUGCUACACAUCGUAUGUACCGAAUCGGGAAGGGGAAGGAAGGGGAAAGUAUUAUGUUACGCCGUUCGGAUCUGCACUUCC: 0.796

Set 2 — technique: protein binding microarray; form: double-stranded DNA, one strand shown; medium: in vitro; concentration: not given; baseline: not given; reading: higher = stronger binding; endpoint: E-score
Target: Histone acetyltransferase KAT6A, both winged helices, GST fusion (KAT6A, Homo sapiens, UniProt Q92794, residues 1-181)
Setting: 8-mer, flanks averaged, mean of 2 arrays, mostly near background
Construct (chain): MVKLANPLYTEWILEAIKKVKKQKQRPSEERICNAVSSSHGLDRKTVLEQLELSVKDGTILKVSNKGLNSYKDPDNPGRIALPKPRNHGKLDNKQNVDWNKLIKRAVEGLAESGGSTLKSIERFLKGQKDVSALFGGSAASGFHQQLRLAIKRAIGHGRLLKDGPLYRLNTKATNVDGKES
TATCGCCA: 0.0336
CTAGAAGA: -0.209
GACGGGCC: 0.303
GATTTTAC: -0.061
CACGAAAC: 0.0829
CCGGCTCG: 0.246
GGACTGAA: -0.119
AGCTGAAC: -0.319
CTATTCCC: -0.125
CTTCCCGA: 0.152
AATGACAG: -0.282
AGGCGGTA: 0.173
GTGGATAA: -0.0517
GGCGATTA: 0.151

Set 3 — technique: RNA Bind-n-Seq; form: RNA; medium: in vitro; concentration: 365 nM; baseline: no-protein control; reading: higher = stronger binding; endpoint: RBNS enrichment (R)
Target: RNA binding protein fox-1 homolog 2, RRM domain, GST-SBP tag (RBFOX2, Homo sapiens, UniProt O43251-10, residues 100-194)
Setting: natural RNA segment, single round, ends assumed
All sequences stand within: GGGAGUUCUACAGUCCGACGAUC … UGGAAUUCUCGGGUGCCAA
Target sequence (chain): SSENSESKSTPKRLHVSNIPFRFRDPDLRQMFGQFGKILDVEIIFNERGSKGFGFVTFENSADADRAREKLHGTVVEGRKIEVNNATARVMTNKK
AGGGAAAUUGAAAAAGACAUGUAGAAUUUUGUUAGGUCUUCUGCUAAGCACGAAUAAGAUAUCUGCUUACAUUAAUUUUUAUAAAGUCAUUCAGUCAGAAUUUAGGAUUC: 1.62
GGUGGGGCUGGGAGAGGAGGAACAGAAGGAAAGCCAUAGCGCUCUCUUGCCCCUUGGCAUGUACCCCAAGGCCUGAUGGCCACUGGGCUCAGCCUGUCCCCCACUCCUGC: 0.237
ACCAAGAUUAGGACGUCAGUGGCUUAAAUUCUUUGAAUUCUUUUCAAGGACUGCAAGAUUAUUUGAUAAAGAGUAGCAUGAAUCUUGUGCUCUAAUAUUACACAGUAAGU: 7.34
ACCCAUGAGGAAUUCGUGGAAUGGCUACUGCUGACUAACAUGAUGCACAUAACCAAAUGGGGGCCAAUGGCACAGUACCUUACUCAUCAUUUAAAAACUAUAUUUACAGA: 0.555
CCCUGACUUGACCUCAGGGCCUGGGGAGGGAAGCACCAUACCAGGGCCAGGAGCUCCAACUCCGACGUGUCAGCCUCUGGGGGAGGGGGGAUUAAGCCUUGAGCUUGGCU: 0.55
AACGCGGGUGCAGGGGGGCGCGGCUGGGCGGUGCAGCUCCGCCCGGCUCCGCCCCUGCAGCCCACACAGCACAACGUCUUACCGUGCCUAUUACCAAGCGAGUGUUUGUA: 0.463
ACAAAGAGCCUCCUUUCCCCACCUUACUCACACUGAUUCCCACCUAACAAUCAGCAGAUGGGAGUGUGGGUUCCUUAUGUCACAGGCUGUGCCCCAGCGGUCACUCACAA: 0.359
GGACCUUGGCAGCCCAGGCCGGGGUGGAGCAUGGGCCUGGCCACCUCUCUCCUUUGCUGAGGCCUCCAGCUUCAGGCAGGCCAAGGCCUUCUCCUCCCCACCCGCCCUCC: 0.407
AUUGCCCAGCUGCCCUUGACAGGAAGUAUGAGCAUCAUCUUCUUCCUGCCCCUGACCGUGACCCAGAACUUGACCAUGAUAGAAGAGAGCCUCACCUCUGAGUUCAUUCA: 2.16
GCCCACAUGGGAAAGAGAUAAAAUGUACAAAUUAGAAAAAUGUGGAUAAACAGUCAAACCUUUAUCCUCUAGAAUUUUGGCAAUGUUGACUAAGAAACAGAGUCCAAGCA: 1.37
UUCUAAGAGAUUUGCAAUGCAAGGUCUCCUUGACCCCUUGCCACAACUGGAAACACUUGAAAGGGGACCCCAGGGCCAGCUGUUUCAGGGGUUUCCUGGACCACCCACUG: 0.202
CUGCCUCUUUAGGAAGUGAGGGUUUCUUGUUCUCCUUUAAAAAUCAGUCUCUAGACUACGGCCAUCAGGAAUCUACCCUCGCCCACCUGACCCUGCGAGGACACGGGCAC: 0.397

Set 4 — technique: competition protein-binding microarray; form: double-stranded DNA, one strand shown; medium: in vitro; concentration: 2 µM; added: Cbf1 competitor, 0.05 µM; reading: higher = stronger binding; endpoint: fluorescence intensity; all sequences stand within: … GTCTTGATTCGCTTGACGCTGCTG
Target: Phosphate system positive regulatory protein PHO4, full length, GST-tagged (PHO4, Saccharomyces cerevisiae, UniProt P07270, residues 1-312)
Setting: whole 60-bp probe, lowest competitor level
Target sequence (chain): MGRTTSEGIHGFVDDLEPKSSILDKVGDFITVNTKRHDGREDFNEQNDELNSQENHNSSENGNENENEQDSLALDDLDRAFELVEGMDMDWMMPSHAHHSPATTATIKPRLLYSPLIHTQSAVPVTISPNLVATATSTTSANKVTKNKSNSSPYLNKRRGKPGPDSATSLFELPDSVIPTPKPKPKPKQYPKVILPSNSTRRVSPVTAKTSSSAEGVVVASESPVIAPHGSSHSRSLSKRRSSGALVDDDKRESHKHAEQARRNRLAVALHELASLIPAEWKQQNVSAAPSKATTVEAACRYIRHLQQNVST
TTTAGTGTCTCTGCCTATGTGATGGGTCTGTTTCCT: 3470 a.u.
CTAACCGGCCACCGTCACATGATTCGATTGTGTAGC: 7360 a.u.
TCCAGGGGGATACTACACGTGTAAGGGTTGAGTATC: 16200 a.u.
CTGAACTCGCCGCCTCACCTGCCACTACGTCTTCCG: 3960 a.u.
TGCGCAACAACTTGTCACGTGGGTGTATGTCTAGAA: 17300 a.u.
AAGGCCACTGTTTATATCGTGCGATGGCTGGCAGGG: 6470 a.u.
CTTTCCCGATCTTGGCTAGTGGGTGTAGCACATTTG: 4410 a.u.
AGGGCGGGAATTTCACATGTGGCTTTTTGCATAATC: 8060 a.u.
CGTCCTAGTGATTGGCACGTGGGTGCCATGAGGAAG: 19200 a.u.
CTAACGAAGGTTTGCCATGTGGGTGACAAGCCAAGT: 10000 a.u.
GTTCCCATTGATTAGCACGTGAAAATCTTAGCGAGT: 16600 a.u.
CGTCCTAGTGATTTTCACGTGCACTCCATGAGGAAG: 15800 a.u.
CTTCTGTAAATTTGTCACTAAACTTGACGCGCCCCG: 3480 a.u.
GCATTAGGTACGATGCACGGGTGCACTGTTAAAAAA: 8740 a.u.

Set 5 — technique: protein-binding microarray; form: double-stranded DNA, one strand shown; medium: in vitro; concentration: 940 nM top; setting: 60-bp whole probe; added: salmon DNA 0.4 mg/ml; baseline: random background probes; reading: higher = stronger binding; endpoint: fitted relative affinity; all sequences stand within: GCCTAGCAC … GTCTTGATTCGCTTGACGCTGCTG
Target: Interferon regulatory factor 5, full length, phosphomimetic (IRF5, Homo sapiens, UniProt Q13568-2, residues 1-514, S451D/S453D/S456D/S462D)
TCATCTTTCTGTCAGTTACTGTGCTAG: 1.7 z-score
TTAGGTATCCTGCTGCTTTAGTGCTAG: 0.0805 z-score
GACGATATGAGTCTCGAGACGTGCTAG: 0.855 z-score
GACGGACTGGACTATCGGGAGGTGCTA: -0.226 z-score
TTAGATATCAGTTTCGATTAGTGCTAG: 8.18 z-score
TCAGAAATCAACTTTTTTACTGTGCTA: -0.0878 z-score
TATCAGCAAACTTTTCTTGAGTGCTAG: 0.853 z-score
GACGGTTTCCGTTCCCTGACGTGCTAG: 2.3 z-score
TTAGGTATCGGACTGGGTCAGTGCTAG: 3.39 z-score
GACGGTTTACTTATCCTGACGTGCTAG: -0.0317 z-score
GACGAACTGGGGTTTCGAAACGTGCTA: 2.34 z-score
TTTGATATCAGTTTCGATTAGTGCTAG: 8.39 z-score

Set 6 — technique: RNAcompete; form: RNA; medium: in vitro; concentration: 20 nM; setting: 7-mer, probes averaged, single round; baseline: mean of 7-mers; reading: higher = stronger binding; endpoint: 7-mer Z-score
Target: PABPC1L2, full length, GST fusion (mouse, UniProt A0ABA7IW68)
Residues (chain): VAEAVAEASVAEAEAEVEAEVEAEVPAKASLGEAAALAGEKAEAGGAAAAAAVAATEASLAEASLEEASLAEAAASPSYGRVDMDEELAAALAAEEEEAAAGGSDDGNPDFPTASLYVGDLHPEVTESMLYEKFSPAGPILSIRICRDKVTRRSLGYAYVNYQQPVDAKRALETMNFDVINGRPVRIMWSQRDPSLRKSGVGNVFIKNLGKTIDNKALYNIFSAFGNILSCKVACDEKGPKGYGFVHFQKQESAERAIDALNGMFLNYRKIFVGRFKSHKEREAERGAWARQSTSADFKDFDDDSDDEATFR
CAUGCUU: -0.133
CGAGAUA: 0.0497
AUUCGGG: 0.0243
CUGGUGU: -0.175
CGACCCG: -0.219
GGAUGCG: 0.207
CCCACUC: -0.423
UAGUACU: -0.144
GCCAACA: 0.00436
GUUAACC: -0.324
GACGGCG: -0.0446
GGCAUGU: 0.155
GGGCACU: 0.169
CAAGCUA: -0.142

Set 7 — technique: RNA Bind-n-Seq; form: RNA; medium: in vitro; concentration: 90 pmol; setting: 4-mer, random 30-nt RNA, single round; baseline: input library; reading: higher = stronger binding; endpoint: 4-mer enrichment
Target: ATP-dependent RNA helicase DDX3X, helicase core (DDX3X, Homo sapiens, UniProt O00571, residues 132-607)
Chain of UniProt O00571 (132-607, looked up): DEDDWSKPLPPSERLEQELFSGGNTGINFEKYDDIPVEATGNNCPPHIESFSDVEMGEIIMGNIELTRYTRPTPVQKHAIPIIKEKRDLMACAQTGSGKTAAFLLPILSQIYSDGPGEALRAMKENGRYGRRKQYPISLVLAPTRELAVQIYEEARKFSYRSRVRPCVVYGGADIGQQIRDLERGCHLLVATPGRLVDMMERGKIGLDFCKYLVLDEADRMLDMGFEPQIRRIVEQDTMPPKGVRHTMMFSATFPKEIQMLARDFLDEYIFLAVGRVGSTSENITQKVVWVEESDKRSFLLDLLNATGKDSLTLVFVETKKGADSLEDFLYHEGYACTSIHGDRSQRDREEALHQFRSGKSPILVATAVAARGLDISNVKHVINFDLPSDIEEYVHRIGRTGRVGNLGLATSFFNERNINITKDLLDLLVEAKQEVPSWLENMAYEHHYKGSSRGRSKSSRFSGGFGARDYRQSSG
Added: 3 µM iPr-DMDA-PatA, 2 mM ADP, 2 mM phosphate
GGGU: 0.933 fold
UUCA: 0.991 fold
CGGG: 1.12 fold
AGUU: 1.08 fold
UCGG: 0.821 fold
GGAU: 1.02 fold
ACCA: 1.31 fold
AAGG: 1.2 fold
UUAU: 1.16 fold
AUGA: 1.25 fold
AGUA: 1.22 fold
CUAA: 1.1 fold
CAAA: 1.31 fold

Set 8 — technique: universal PBM; form: double-stranded DNA, one strand shown; medium: in vitro; concentration: not given; reading: higher = stronger binding; endpoint: E-score
Target: Sal-like protein 4, full length isoform B (SALL4, Homo sapiens, UniProt Q9UJQ4-2, residues 1-616)
Setting: 8-mer, flanks averaged, mean of replicates
Construct (chain): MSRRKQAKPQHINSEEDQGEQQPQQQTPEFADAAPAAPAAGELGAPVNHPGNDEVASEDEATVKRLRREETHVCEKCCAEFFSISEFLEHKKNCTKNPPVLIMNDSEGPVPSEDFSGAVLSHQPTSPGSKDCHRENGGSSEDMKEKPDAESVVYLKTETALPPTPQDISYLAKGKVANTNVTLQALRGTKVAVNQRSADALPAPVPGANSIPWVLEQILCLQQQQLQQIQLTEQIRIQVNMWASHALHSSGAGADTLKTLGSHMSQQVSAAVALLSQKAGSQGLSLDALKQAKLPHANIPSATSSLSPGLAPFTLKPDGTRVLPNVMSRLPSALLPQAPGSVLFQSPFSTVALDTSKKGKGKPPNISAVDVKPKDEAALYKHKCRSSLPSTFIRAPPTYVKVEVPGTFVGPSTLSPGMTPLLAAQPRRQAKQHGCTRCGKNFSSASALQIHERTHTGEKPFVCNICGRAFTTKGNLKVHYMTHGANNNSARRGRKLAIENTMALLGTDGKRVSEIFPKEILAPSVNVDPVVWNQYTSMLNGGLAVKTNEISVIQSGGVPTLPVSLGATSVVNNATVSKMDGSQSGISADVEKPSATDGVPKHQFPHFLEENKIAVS
TCGATAAA: 0.286
GTAACCAC: -0.149
AGGCCGCA: -0.221
GACCTGAC: -0.267
GTGCCAAC: -0.163
CTCGATTC: -0.0608
CAGGGAAG: -0.199
GGACGCCA: -0.328
TCAGGCAA: -0.0419
CCTGTCTA: 0.0484
GTACGCAA: -0.0281
TCCGCGGA: -0.15
TAGAGCAA: -0.0285
ACGAGGGA: 0.0187

A few entries again (set 8):
AGGCCGCA: -0.221
GACCTGAC: -0.267
GTGCCAAC: -0.163
CTCGATTC: -0.0608
CAGGGAAG: -0.199
GGACGCCA: -0.328
TCAGGCAA: -0.0419
CCTGTCTA: 0.0484
GTACGCAA: -0.0281
TCCGCGGA: -0.15
TAGAGCAA: -0.0285
ACGAGGGA: 0.0187
